Assay results from different studies.
Parts stem from different laboratories: compare values within a part only.

Sample 1
Target: Interferon regulatory factor 7, full length, phosphomimetic (IRF7, Homo sapiens, UniProt Q92985, residues 1-503, S471D/S472D/S475D/S476D/S477D/S483D/S484D/S487D)
Method: protein-binding microarray
Form: double-stranded DNA, one strand shown
Sample: in vitro
Concentration: 2200 nM top
Notes: 60-bp whole probe
With: salmon DNA 0.4 mg/ml
Relative to: random background probes
Reading: higher = stronger binding
Constant ends, left off below: GCCTAGCAC … GTCTTGATTCGCTTGACGCTGCTG
Target sequence (chain): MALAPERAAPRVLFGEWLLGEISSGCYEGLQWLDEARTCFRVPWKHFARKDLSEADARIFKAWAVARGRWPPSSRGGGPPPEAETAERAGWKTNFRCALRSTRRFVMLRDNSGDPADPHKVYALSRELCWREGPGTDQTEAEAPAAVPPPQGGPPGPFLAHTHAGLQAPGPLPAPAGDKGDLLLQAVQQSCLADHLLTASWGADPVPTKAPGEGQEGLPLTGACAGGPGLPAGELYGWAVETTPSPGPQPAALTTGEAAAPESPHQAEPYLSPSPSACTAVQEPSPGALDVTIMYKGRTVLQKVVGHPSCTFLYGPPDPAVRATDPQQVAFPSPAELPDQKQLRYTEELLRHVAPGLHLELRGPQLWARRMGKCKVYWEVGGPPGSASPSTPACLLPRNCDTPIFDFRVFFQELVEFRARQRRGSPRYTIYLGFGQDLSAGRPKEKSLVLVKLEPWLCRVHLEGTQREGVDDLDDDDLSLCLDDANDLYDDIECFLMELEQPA
Under “fitted relative affinity”, `TTAGGCCTGGGGTTTCGGTTAGTGCTA` is recorded as 2.19 z-score.
Under “fitted relative affinity”, `GACGGTTTTCTTTTCCTGACGTGCTAG` is recorded as 4.39 z-score.
Under “fitted relative affinity”, `TCAGTCACCCATCTCAGACTGTGCTAG` is recorded as 0.901 z-score.
Under “fitted relative affinity”, `CTGGCCTGGGGTCTGCAGAGGTGCTAG` is recorded as -1.52 z-score.
`GTGTATATGGACGTCTGAAGGTGCTAG` — result for “fitted relative affinity”: 0.485 z-score.

Sample 2
Target: RING finger protein unkempt homolog, zinc fingers 1-6, GST-SBP tag (UNK, Homo sapiens, UniProt Q9C0B0, residues 30-357)
Chain of UniProt Q9C0B0 (30-357, looked up): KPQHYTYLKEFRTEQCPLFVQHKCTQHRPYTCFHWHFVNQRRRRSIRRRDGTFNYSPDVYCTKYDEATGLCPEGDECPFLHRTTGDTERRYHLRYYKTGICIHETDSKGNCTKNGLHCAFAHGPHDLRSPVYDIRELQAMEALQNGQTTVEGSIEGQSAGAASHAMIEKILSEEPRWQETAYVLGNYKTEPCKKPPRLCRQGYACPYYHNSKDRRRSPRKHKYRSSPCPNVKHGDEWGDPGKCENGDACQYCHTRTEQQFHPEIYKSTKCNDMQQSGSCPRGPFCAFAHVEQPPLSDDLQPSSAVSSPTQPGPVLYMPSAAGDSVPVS
Method: RNA Bind-n-Seq
Form: RNA
Sample: in vitro
Concentration: not given
Notes: RNA with constant flanks, human and mouse sites, ends assumed
Relative to: input RNA pool
Reading: higher = stronger binding
Constant ends, left off below: GGGAGUUCUACAGUCCGACGAUC … CAACAGAGGAUUGAGCAUCA
With `CACUGAGGUUUCUCUGUCGCCCACCAAAAAAAAAAAAAAAAAAAAAAAUGGAUCACUUAAGGCCUGGGAGGACUCAGUUAUCACAGUAAUCCUGUACCAUCAACUAAGGUUUAUCUGACA` the bound/input enrichment was 0.632 ratio.
`GCGGAAUAAUAAGCCGGGAUCUACCAUACCCAUUGACUAACUAUGGAAGAUUAUACCAAAAUAGAGAAAAUUGGAGAAGGUACCUAUGGAGUUGUGUAUAAGGGUAGACACAAAACUACA` gave a bound/input enrichment of 0.365 ratio.
`UUUCUCUUCCACAUGAAAGUAGUAGUUCAGAUGCAAGCUAAGCUGUUUAAUAAGAUUGUUUUUAGUUUAUGUAAAUACUUGUAAAUUGGUCAGUACCUGUAUUGUACAUUUAAAUAUAAA` gave a bound/input enrichment of 2.22 ratio.
For `AUUUUCCAGUUUUAACAAAUUUAAGAACCCCAAACUAACAGGCUUAGUGAUGUAAUUGUGUUUAGUAGAGGUACACUUGUGAAUAAGGAGGGUGGGUGGGGUAGAUGUUGCUAACUGCAA`, the bound/input enrichment was 4.13 ratio.
The bound/input enrichment of `GUAUUGGUUGGUGGUCCUGUCCCCUAAAGAUCAAGCUACACAUCAGUUUUACAAUAUAAAUACUUGUACUACCUUAAUGAUAAGGACUCCUUAAAGUUCCAUUUGCUAAUGAUUAAUACA` is reported as 0.402 ratio.

Sample 3
Target: Prothrombin, mature alpha-thrombin (F2, Homo sapiens, UniProt P00734)
Method: aptamer microarray, sandwich
Form: DNA with 2'F-ANA
Sample: in vitro
Concentration: 200 nM
Notes: whole 15-mer aptamer, many near background
With: Cy3 exosite-II aptamer, 400 nM
Reading: higher = stronger binding
Oligonucleotide: GGTTGGTGTGGTTGG
`2'F-ANA at 1 2 3 4 6 8 9 11 12 15`: “mean fluorescence intensity” 253 a.u.
For `2'F-ANA at 1 4 7 8 10 15`, “mean fluorescence intensity” read 56.3 a.u.
`2'F-ANA at 1 2 3 5 6 9 10 14` — result for “mean fluorescence intensity”: 45.7 a.u.
For `2'F-ANA at 2 4 5 7 12 13 14 15`, “mean fluorescence intensity” read 53 a.u.
`2'F-ANA at 2 3 4 6 7 8 11 12 15`: “mean fluorescence intensity” 775 a.u.

Mixed results
`PhoQ, residues 284 288 289 292 302 303 SLKLQV` gave a fold induction of 1.19 (PhoP, residues 12 14 15 18 19 NQAHL (Escherichia coli, UniProt P23836); Sort-seq, measured: YFP reporter; E. coli; PhoQ-PhoP variant library, with: 10 µM Mg2+; relative to: high Mg2+ state, higher = stronger signaling).

Excerpt of the above (sample 1):
`GTGTATATGGACGTCTGAAGGTGCTAG` — result for “fitted relative affinity”: 0.485 z-score.
